Results gathered from unrelated publications.
Numbered parts are unrelated; each lists some results of a single study. Values joined by “and” are separate records of one study, mostly repeats; a detail may differ. Converted amounts (≈) assume the structure as drawn.

Block 1
Target: Membrane-associated tyrosine- and threonine-specific cdc2-inhibitory kinase (PKMYT1, Homo sapiens, UniProt Q99640)
Read-out: binding
Method: HTRF
Concentration: 0.46 nM
Residues (Q99640 1-499): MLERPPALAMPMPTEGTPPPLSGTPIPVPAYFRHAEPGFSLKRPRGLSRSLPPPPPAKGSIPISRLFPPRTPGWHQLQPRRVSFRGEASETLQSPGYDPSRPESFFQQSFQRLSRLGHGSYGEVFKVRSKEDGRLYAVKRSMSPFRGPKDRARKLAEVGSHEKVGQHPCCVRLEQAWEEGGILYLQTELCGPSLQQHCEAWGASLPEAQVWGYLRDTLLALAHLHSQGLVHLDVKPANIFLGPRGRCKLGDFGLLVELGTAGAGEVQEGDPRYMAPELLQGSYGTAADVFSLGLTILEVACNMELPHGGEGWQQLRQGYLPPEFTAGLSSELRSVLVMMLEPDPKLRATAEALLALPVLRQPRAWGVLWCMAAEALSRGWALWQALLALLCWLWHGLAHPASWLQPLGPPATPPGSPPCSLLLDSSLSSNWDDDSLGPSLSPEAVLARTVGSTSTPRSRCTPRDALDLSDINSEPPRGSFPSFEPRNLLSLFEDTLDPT
| SMILES | inhibition |
| --- | --- |
| Cc1ccc(O)c(C)c1-c1cnc2[nH]c(-c3cnc(N4CCC(CN5CCN(c6ccc(N7CCC(=O)NC7=O)cc6F)CC5)CC4)nc3)cc2c1C#N | 3.23% and 2.02% |
| Cc1ccc(O)c(C)c1-c1cnc2[nH]c(-c3cnc(N4CCC(CN5CCN(c6ccc(C(=O)NC7CCC(=O)NC7=O)c(F)c6)CC5)CC4)nc3)cc2c1C#N (racemic) | -1.68% and -1.36% |
| Cc1ccc(O)c(C)c1-c1cnc2[nH]c(-c3cnc(N4CCC(CN5CCN(c6ccc7c8c(cccc68)C(=O)N7C6CCC(=O)NC6=O)CC5)CC4)nc3)cc2c1C#N (racemic) | -0.6% and -2.26% |

Block 2
Structure (SMILES): N=C(N)NCCCCCCN1CCC23c4c5ccc(O)c4OC2c2nc4ccccc4cc2CC3(O)C1C5 (stereo not shown)
Method: modified Racine scale
Host: C57BL/6J mice, male
Route: intracerebroventricular
Dose: 100 nmol
Reading: direction not given
| time | seizure score |
| --- | --- |
| 70 min | 0 |
| 35 min | 0 |
| 45 min | 0 |
| 50 min | 0 |
| 60 min | 0 |
| 10 min | 0 |
| 80 min | 0 |

Block 3
SMILES: Cn1cc(-c2cccc(CN3CCC4(CC3)COc3c4ccc4c3CN([C@H]3CCC(=O)NC3=O)C4=O)c2)cn1
| read-out | host | medium | route | dose | half-life |
| --- | --- | --- | --- | --- | --- |
|  | cynomolgus monkey |  | oral | 3 mg/kg | 11 h and 10.3 h and 8.74 h |
| metabolic stability | monkey | liver microsomes |  |  | 0.607 h |
|  | cynomolgus monkey |  | intravenous | 1 mg/kg | 9.35 h and 7.96 h and 9.24 h |
|  | cynomolgus monkey |  | oral | 3.02 mg/kg | 10 h |
|  | cynomolgus monkey | plasma | intravenous | 1 mg/kg | 8.85 h |
|  |  | rat plasma |  |  | 10.8 h |
|  | rat | plasma | intravenous | 1.02 mg/kg | 1.94 h |
|  |  | mouse liver microsomes |  |  | > 2 h |
|  |  | mouse plasma |  |  | 124 h |
|  |  | rat liver microsomes |  |  | > 2 h |

Block 4
SMILES: CCCCC[C@@H]1CC(=O)N[C@@H](C(C)C)C(=O)N[C@H](CCC(=O)O)C(=O)N[C@@H](CCCNC(=N)N)C(=O)NCC(=O)N2CCC[C@H]2C(=O)N[C@@H](CC(C)C)C(=O)N[C@H](CCC(N)=O)C(=O)N[C@@H](CCC(=O)O)C(=O)N[C@H](Cc2ccc(O)cc2)C(=O)N[C@H](Cc2c[nH]c3ccccc23)C(=O)NCCCC(=O)O1
Organism: Staphylococcus aureus
Strain: USA300
| with | MIC [µg/mL] |
| --- | --- |
| menaquinone 2 µg/mL | 16 (≈ 10.8 µM) |
| menaquinone 0.0625 µg/mL | 4 (≈ 2.69 µM) |
| ubiquinone 0 µg/mL | 4 (≈ 2.69 µM) |
| menaquinone 16 µg/mL | > 64 |
| menaquinone 0.125 µg/mL | 4 (≈ 2.69 µM) |
| menaquinone 0.5 µg/mL | 8 (≈ 5.38 µM) |
| ubiquinone 64 µg/mL | 8 (≈ 5.38 µM) |
| menaquinone 0.25 µg/mL | 8 (≈ 5.38 µM) |
